Measurements collected from several papers.
Protocols differ between the studies behind these lines. Numbers after ± are the reported error.

SMILES	target or system	assay	system	setting	how to read	quantity	value
Cc1ccc2c(c1)nc(NC(=O)c1cccc(C(F)(F)F)c1)n2[C@H]1CC[C@H](N)CC1	Trypanosoma brucei brucei	cell growth, CellTiter-Glo	Lister 427 bloodstream form	48 h, mean of 2 experiments		EC50	0.288 µM
CC1=C/C(=N\N=C(/S)Nc2cccnc2)CC(C)(C)C1	Mus musculus	gene silencing, high-content imaging	LDR reporter GFP cells	confirmation, mean of two runs		EC50	3.16 µM
O=S(=O)(c1cccc(-c2ccc3ncnc(Nc4ccc(OCc5cccc(F)c5)c(Cl)c4)c3c2)c1)N1CCCCC1	Leishmania major	parasite growth, resazurin		promastigote		EC50	> 15 µM
CC(C)n1ncc2c(C(=O)NCC3CN(C)C3)cc(C3CC3)nc21	Enterovirus D68	cytopathic effect	RD, US/MO/14-18947			EC50	0.11 µM
COc1cccc(/C=N/Nc2nc(Nc3ccccc3)nc(-n3nc(C)cc3C)n2)c1O	Mus musculus	gene silencing, high-content imaging	LDR reporter GFP cells	confirmation, mean of two runs		EC50	3.55 µM
CCCCCC(=O)NC(CC(=O)N(CC)CC)C(=O)NC(Cc1ccc(F)cc1)C(=O)NC(Cc1ccc(F)cc1F)C(=O)C1(C)CO1 (stereo not drawn)	Trypanosoma brucei	parasite growth, SYBR Green	RHODESIENSE			EC50	0.156 µM
COC1CN([C@H]2CC[C@H]([C@@]3(C)Oc4c(Cl)cc(C(=O)NCc5c(SC)cc(C)[nH]c5=O)c(C)c4O3)CC2)C1		RNA-seq, item: FZD7	human, whole blood	dose not given, 24 h	relative to: pretreatment baseline	log2 fold change	1.69
C[n+]1cccc2cc(/C=N/NC(=O)c3cccc(C(=O)N/N=C/c4ccc5c(ccc[n+]5C)c4)n3)ccc21	MYC parallel G4 DNA	FRET melting		1 µM, DNA 0.2 µM		ΔTm	9.9 ± 0.5 °C
O=C(CSc1cccc[n+]1[O-])c1ccccc1Br	Mus musculus	gene silencing, high-content imaging	LDR reporter GFP cells	retest, mean of two runs		EC50	15.8 µM
Fc1cccc(COc2ccc(Nc3ncnc4ccc(-c5cccc(N6CCCCC6)c5)cc34)cc2Cl)c1	Leishmania major	parasite growth, resazurin		promastigote		EC50	> 15 µM
CC[n+]1cccc2cc(/C=N/NC(=O)C(=O)N/N=C/c3ccc4c(ccc[n+]4CC)c3)ccc21	hp2 hairpin duplex DNA	FRET melting		1 µM		ΔTm	1.8 ± 0.4 °C
CN(C)S(=O)(=O)c1ccccc1-c1ccc2ncnc(Nc3ccc(OCc4cccc(F)c4)c(Cl)c3)c2c1	Leishmania major	parasite growth, resazurin		promastigote		EC50	2.8 µM
CN(C(=O)[C@H](Cc1ccccc1)NC(=O)Cc1c[nH]c2ccc(O)cc12)c1ccc(Cl)cc1	HIV-2	viral replication				EC50	0.32 ± 0.07 µM
Fc1cccc(COc2ccc(Nc3ncnc4ccc(-c5ccc(N6CCNCC6)cc5)cc34)cc2Cl)c1	Leishmania major	parasite growth, resazurin		promastigote		EC50	> 15 µM
Oc1c(/N=N/c2ccccn2)ccc2ccccc12	Mus musculus	gene silencing, high-content imaging	LDR reporter GFP cells	confirmation, mean of two runs		EC50	31.6 µM

For quick reference, copied from above:
SMILES	target or system	assay	system	setting	how to read	quantity	value
CC(C)n1ncc2c(C(=O)NCC3CN(C)C3)cc(C3CC3)nc21	Enterovirus D68	cytopathic effect	RD, US/MO/14-18947			EC50	0.11 µM
COc1cccc(/C=N/Nc2nc(Nc3ccccc3)nc(-n3nc(C)cc3C)n2)c1O	Mus musculus	gene silencing, high-content imaging	LDR reporter GFP cells	confirmation, mean of two runs		EC50	3.55 µM
